# Measured values collected from several papers.
# Each line is one published result; not all experiments were run side by side.
SMILES,system,setting,how to read,measurement,result
CCCCCCCCC=CCCCCCCCC(=O)OCC1OC(n2ccc(N)nc2=O)C(F)(F)C1O (centres unmarked),"female nude mouse, colon xenograft, patient-derived colon tumour","oral, 100 mg/kg, dosed days 1 and 8",,body weight loss,4%
CC[C@H](C)[C@H](NC(=O)[C@H](CC(C)C)NC(=O)[C@H]1CCCN1C(=O)[C@@H](CO)NC(=O)[C@H](N)CC(C)C)C(=O)N[C@@H](Cc1ccccc1)C(=O)N[C@H](C(=O)N[C@H](C(=O)N[C@H](C(=O)N1CCC[C@H]1C(=O)N[C@@H](CC(=O)O)C(=O)N[C@@H](C(=O)O)[C@H](C)O)[C@@H](C)O)[C@@H](C)O)C(C)C,"C57BL/6 mouse, tumour-bearing","intraperitoneal, 2 or 6 mg/kg daily, 14 days",reference: negative control,body weight,no effect
CCCCCCCCCn1cc(C(N)(CO)CO)nn1,APP/PS1 mouse,"oral, up to 10 mg/kg",,body weight,no effect
COc1ccc2sc3c(c2c1)SCCNC3=O,"mouse, CFPAC-1 xenograft","intravenous, 37.5 and 25 mg/kg/day, daily for 4 days",,body weight,no effect
COCC1CN(C2CCN(c3cc(OC)c(Nc4ncc(Br)c(Nc5ccc6c(c5P(C)(C)=O)OCCO6)n4)cc3C)CC2)C1,"PC-9 EGFR Del19/T790M/C797S, mouse xenograft","oral, dose not given, once daily",,body weight change,not toxic
N=C(N)NCCC[C@H](NC(=O)[C@H](CCCNC(=N)N)NC(=O)[C@H](CS)NC(=O)[C@H](CC(N)=O)NC(=O)[C@@H]1CCCN1C(=O)[C@H](CC(N)=O)NC(=O)[C@H](CCCCN)NC(=O)[C@H](CCCCN)NC(=O)[C@@H](N)CCCNC(=N)N)C(=O)N[C@@H](Cc1c[nH]cn1)C(N)=O,BALB/c nude mouse xenograft,"ip, 1 mg/kg three times weekly, 5 weeks",,body weight,no effect
C=CC(=O)N1C[C@H](C)N(c2nc(OC[C@@]34CCCN3C[C@H](F)C4)nc3c(F)c(-c4ccc(F)c5sc(N)c(C#N)c45)c(C(F)(F)F)cc23)C[C@H]1C,"mouse, MIA PaCa-2 xenograft","oral, 0.1 to 10 mg/kg daily, 28 days, tolerability",,body weight,not toxic
N[C@@H](CCC(=O)N[C@@H](CS[Se]Cc1ccc(-c2cc(C(F)(F)F)nn2-c2ccc(S(N)(=O)=O)cc2)cc1)C(=O)NCC(=O)O)C(=O)O,athymic nude mouse xenograft,"i.p., 0.127 µmol alternate days, 4 weeks",,body weight,no effect
